Experimental data pooled from the literature.
Every numbered part comes from another study and shows a few of its results, in no order.

Sample 1
Target: Prothrombin, mature alpha-thrombin (F2, Homo sapiens, UniProt P00734)
Method: aptamer microarray, sandwich
Molecule type: DNA with 2'F-ANA
Matrix: in vitro
Concentration: 200 nM
Setting: whole 15-mer aptamer, many near background
With: Cy3 exosite-II aptamer, 400 nM
Reading: higher = stronger binding
Endpoint: mean fluorescence intensity
Oligonucleotide: GGTTGGTGTGGTTGG
2'F-ANA at 5 6 7 9 11 13: 52.1 a.u.
2'F-ANA at 2 3 4 6 8 10 11 13: 171 a.u.
2'F-ANA at 2 4 5 6 8 9 10 11 12 14 15: 50.1 a.u.
2'F-ANA at 1 2 3 4 7 8 9 11 12: 324 a.u.
2'F-ANA at 1 3 4 5 9 11 13: 141 a.u.
2'F-ANA at 1 3 4 5 8 10 12: 51.7 a.u.
2'F-ANA at 1 2 5 6 7 8 9 11 12 13 15: 84.9 a.u.
2'F-ANA at 2 3 4 5 7 13: 103 a.u.
2'F-ANA at 4 8 12 13 14 15: 120 a.u.
2'F-ANA at 1 6 9 10 12 13 14 15: 169 a.u.
2'F-ANA at 1 2 3 4 7 9 10 13 14: 48.7 a.u.
2'F-ANA at 1 2 3 4 5 7 8 10 12 14 15: 47.5 a.u.
2'F-ANA at 5 8 11 14: 44.3 a.u.
2'F-ANA at 3 4 6 7 8 9 12 14: 323 a.u.
2'F-ANA at 3 4 7 9 10 12: 526 a.u.
2'F-ANA at 2 3 9 10 14: 295 a.u.
2'F-ANA at 1 3 5 6 9 10 11 12 13 14 15: 47.2 a.u.
2'F-ANA at 7 8 9 11 13 14 15: 187 a.u.

Sample 2
Target: Ras GTPase-activating protein-binding protein 1, full length (G3BP1, Homo sapiens, UniProt Q13283)
Chain of UniProt Q13283 (whole entry, looked up): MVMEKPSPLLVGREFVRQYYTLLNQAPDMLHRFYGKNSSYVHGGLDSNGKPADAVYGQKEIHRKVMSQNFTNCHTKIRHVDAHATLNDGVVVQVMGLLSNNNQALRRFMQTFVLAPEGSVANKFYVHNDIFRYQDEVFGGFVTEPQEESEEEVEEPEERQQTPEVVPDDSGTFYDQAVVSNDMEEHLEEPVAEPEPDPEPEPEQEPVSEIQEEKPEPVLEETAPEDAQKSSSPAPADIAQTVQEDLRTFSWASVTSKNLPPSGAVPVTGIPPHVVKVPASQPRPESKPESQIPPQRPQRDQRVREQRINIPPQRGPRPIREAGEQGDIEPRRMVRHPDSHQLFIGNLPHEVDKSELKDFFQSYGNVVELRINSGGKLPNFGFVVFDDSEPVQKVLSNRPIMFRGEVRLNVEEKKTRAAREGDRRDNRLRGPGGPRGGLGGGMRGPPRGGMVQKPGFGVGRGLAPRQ
Method: RNA Bind-n-Seq
Molecule type: RNA
Matrix: in vitro
Concentration: 200 nM
Setting: whole 134-nt RNA, ends assumed
With: 150 mM KCl
Baseline: input library
Reading: higher = stronger binding
Endpoint: log2 enrichment
All sequences stand within: GGGAGUUCUACAGUCCGACGAUC … UGGAAUUCUCGGGUGUCAAGG
AGUCCUGUGCUACACAUCGUAUGUACCGAAUCGGGAAAAAGGGUGGGAAAAAAAGGGAAAGUAUUAUGUUACGCCGUUCGGAUCUGCACU: -0.219
GCAGGAAGUAAAAACAAAUGGAAAUGCUUCGGAUAGUGGCAGGGGUGCGGGUUGCUAAGGAAAGGGUGGGAUGGGAGUGGGUAAAGAGUU: 0.912
CAAGUCCUGUGCUACACAUCGUAUGUACCGAAUCGGGUUUGGGUUUGGGUUUGGGGAAAGUAUUAUGUUACGCCGUUCGGAUCUGCACUU: 0.794
CAUGUUGAAAGACAUGCUUUUAUUUUUUUGUAAAACAAUAUAGGAGCUGUGUCUACUAUUAAAAGUGAAACAUUUUGGCAUGUUUGUUAA: -2.33
UCAUUGCAUGAAAAGUGGAAAAGUUUAGAUCUAUGGAAACAGAACUGUUGCCUAUAUGGAAAAUCAGUGCCUUGUGGCAAUACAGGUAAG: -1.87
AGUCCUGUGCUACACAUCGUAUGUACCGAAUCGGGAAAGGGUUUUUUUGGGAAAGGGAAAGUAUUAUGUUACGCCGUUCGGAUCUGCACU: -0.246
GCAGGAAGUAAAAACAAAUGGAAAUGAAACGGAUAGUGGCAGGGGUGGGGGUUGCUAAGGAAAGGGUGGGAUGGGAGUGGGUAAAGAGUU: 0.96
ACCAUGCAGGUGGGCAUCUUUGGGAUGUGGGGCAAGGGGGGGAUAGGGAGGGGGGUAACACUUUGGGAACAGGUGGUCCCAGGUCGUUUC: 1.09
UGGCCCUGGUGGCAUGCGGGGAGGAAGAGGUGGCCUCAUGGAUCGUGGUGGUCCCGGUGGAAUGUGCAGAGGUGGCCGUGGUGGAGACAG: 0.523

Sample 3
Target: Interferon regulatory factor 7, full length, phosphomimetic (IRF7, Homo sapiens, UniProt Q92985, residues 1-503, S471D/S472D/S475D/S476D/S477D/S483D/S484D/S487D)
Chain of UniProt Q92985 (whole entry, unmodified, looked up): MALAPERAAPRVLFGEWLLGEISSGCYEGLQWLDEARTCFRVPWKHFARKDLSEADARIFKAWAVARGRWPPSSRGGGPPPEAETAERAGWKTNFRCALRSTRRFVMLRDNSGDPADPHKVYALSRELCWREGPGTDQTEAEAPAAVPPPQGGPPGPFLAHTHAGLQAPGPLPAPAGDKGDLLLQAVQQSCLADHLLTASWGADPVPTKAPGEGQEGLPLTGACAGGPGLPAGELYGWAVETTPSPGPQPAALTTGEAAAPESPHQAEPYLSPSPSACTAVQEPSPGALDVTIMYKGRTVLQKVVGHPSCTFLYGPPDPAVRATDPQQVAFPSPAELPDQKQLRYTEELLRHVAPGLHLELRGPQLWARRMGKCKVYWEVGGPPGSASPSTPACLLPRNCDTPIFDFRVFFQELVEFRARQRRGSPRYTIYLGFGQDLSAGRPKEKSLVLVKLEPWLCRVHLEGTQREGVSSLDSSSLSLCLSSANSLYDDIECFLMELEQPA
Method: protein-binding microarray
Molecule type: double-stranded DNA, one strand shown
Matrix: in vitro
Concentration: 2200 nM top
Setting: 60-bp whole probe
With: salmon DNA 0.4 mg/ml
Baseline: random background probes
Reading: higher = stronger binding
Endpoint: fitted relative affinity
All sequences stand within: GCCTAGCAC … GTCTTGATTCGCTTGACGCTGCTG
GACGATATCGGGTATCGTGACGTGCTA: 0.344 z-score
TTAGGTTTCTTACTGCTTTAGTGCTAG: 1 z-score
TCAATTCGTCATTTCACACTGTGCTAG: 1.82 z-score
TTAGGTTTCGGCTATCGGTTAGTGCTA: 3.22 z-score
TCTCTGCTCCTTCTGACATCGTGCTAG: 1.77 z-score
TCAGTTTCACTTTCCAAACTGTGCTAG: 10.7 z-score
TTAGATATCAGTCTAGATTAGTGCTAG: -0.238 z-score
TAAGGACTGCTTATCCTTTAGTGCTAG: 0.254 z-score
GAGGGACTGGGTCTCGGGACGTGCTAG: -1.1 z-score
GACGATATCGGGATTGGAGACGTGCTA: -0.0652 z-score
TTAGGTATCGGGTTCCGGTTAGTGCTA: 1.2 z-score
TTAGGTCTCGGTATCGGCTAGTGCTAG: 0.482 z-score
AGACAGAAGGGAAACAGGTTGGTGCTA: -0.756 z-score
TCATTTTTTTCTTTAAAACTGTGCTAG: 1.31 z-score
TTATGTTTCCTTCTCCTTTAGTGCTAG: 3.38 z-score
TTAGGTATCGGTCTCGGTAAGTGCTAG: 0.505 z-score
ATTTGTAAGTACATTAACTCGTGCTAG: 0.44 z-score
TAAGGACTGGGTTTCGGTTAGTGCTAG: 3.89 z-score
TTACGACTGGGTTTCGGTTAGTGCTAG: 4.55 z-score

Sample 4
Target: Transcription factor SOX-2, HMG box (SOX2, Homo sapiens, UniProt P48431, residues 19-118)
Chain of UniProt P48431 (19-118, looked up): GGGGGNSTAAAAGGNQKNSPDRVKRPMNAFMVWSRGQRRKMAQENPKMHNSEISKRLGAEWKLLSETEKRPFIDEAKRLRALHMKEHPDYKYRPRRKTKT
Method: protein-binding microarray
Molecule type: double-stranded DNA, one strand shown
Matrix: in vitro
Concentration: not given
Setting: k-mer, scored over probes, only values ≥0.25
Reading: higher = stronger binding
Endpoint: E-score
CAATTTC: 0.336
ATGCGTA: 0.278
ATAATTC: 0.367
ATAATGG: 0.376
ATTATTA: 0.43
ATAATGA: 0.396
ATTTCAA: 0.279
CATAAAA: 0.255
ATTGATA: 0.355
AACAATG: 0.478
ATATAAA: 0.334
ATTATGA: 0.367
AATAGTA: 0.311
ATTATAA: 0.372
TATTCAA: 0.357
AATTTTA: 0.283
CAAAACA: 0.283
ATGTAAT: 0.299
GTGAAAA: 0.329
CAATATA: 0.358
ATAATAG: 0.418
AATAGAA: 0.388
ACAATCG: 0.371
CAAATTG: 0.331

Repeated from above (sample 4):
ATGTAAT: 0.299
GTGAAAA: 0.329
CAATATA: 0.358
ATAATAG: 0.418
AATAGAA: 0.388
ACAATCG: 0.371
CAAATTG: 0.331
